Assay results of several laboratories.
Each numbered part is a random draw from the data of one study; scales do not carry over between parts.

Set 1 — technique: universal PBM; molecule type: double-stranded DNA, one strand shown; sample: in vitro; concentration: not given; reading: higher = stronger binding; endpoint: E-score
Target: Sal-like protein 4, full length isoform B (SALL4, Homo sapiens, UniProt Q9UJQ4-2, residues 1-616)
Setting: 8-mer, flanks averaged, mean of replicates
Strand = AAGTGGCC; result = -0.13
Strand = AGAGTTCG; result = -0.093
Strand = ATGCTACC; result = 0.0401

Set 2 — technique: protein-binding microarray; molecule type: double-stranded DNA, one strand shown; sample: in vitro; concentration: 2200 nM top; setting: 60-bp whole probe; together with: salmon DNA 0.4 mg/ml; reference: random background probes; reading: higher = stronger binding; endpoint: fitted relative affinity; all sequences stand within: GCCTAGCAC … GTCTTGATTCGCTTGACGCTGCTG
Target: Interferon regulatory factor 7, full length, phosphomimetic (IRF7, Homo sapiens, UniProt Q92985, residues 1-503, S471D/S472D/S475D/S476D/S477D/S483D/S484D/S487D)
Construct (chain): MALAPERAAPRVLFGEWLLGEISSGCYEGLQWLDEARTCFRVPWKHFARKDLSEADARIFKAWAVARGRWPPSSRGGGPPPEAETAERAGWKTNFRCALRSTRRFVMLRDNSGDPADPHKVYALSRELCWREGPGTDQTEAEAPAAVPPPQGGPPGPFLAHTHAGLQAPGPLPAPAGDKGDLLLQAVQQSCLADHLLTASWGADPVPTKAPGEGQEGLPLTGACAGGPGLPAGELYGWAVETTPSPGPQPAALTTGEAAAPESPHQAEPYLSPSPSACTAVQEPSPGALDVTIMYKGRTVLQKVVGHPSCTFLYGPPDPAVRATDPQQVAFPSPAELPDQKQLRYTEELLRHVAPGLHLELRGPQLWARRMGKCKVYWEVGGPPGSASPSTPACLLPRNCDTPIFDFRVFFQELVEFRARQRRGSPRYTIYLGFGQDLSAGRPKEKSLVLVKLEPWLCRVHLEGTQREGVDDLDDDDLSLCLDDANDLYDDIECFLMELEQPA
Strand = GTCGGACTGGGTCTCGGGACGTGCTAG; result = -0.658 z-score
Strand = CTTTATGTCCTGTCTACATGGGTGCTA; result = 1.08 z-score
Strand = TCTGTTTTTGCTTTCCTTCTGTGCTAG; result = 5.97 z-score
Strand = TCAAATCTCTCATGTTACACTGTGCTA; result = 0.717 z-score
Strand = TTAGGACTGGGGTATGGGTTAGTGCTA; result = -0.638 z-score

Set 3 — technique: protein binding microarray; molecule type: double-stranded DNA, one strand shown; sample: in vitro; concentration: not given; reference: not given; reading: higher = stronger binding; endpoint: E-score
Target: Histone acetyltransferase KAT6A, winged helix 2, GST fusion (KAT6A, Homo sapiens, UniProt Q92794, residues 85-181)
Setting: 8-mer, flanks averaged, mean of 2 arrays, mostly near background
Residues (chain): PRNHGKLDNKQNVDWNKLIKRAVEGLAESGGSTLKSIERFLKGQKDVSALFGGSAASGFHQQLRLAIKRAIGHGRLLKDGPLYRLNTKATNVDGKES
Strand = ACTCGGGA; result = 0.118
Strand = AGCTGATA; result = -0.104
Strand = GAGCCACC; result = 0.0417
Strand = CATCTCAC; result = 0.0234

Other studies, line by line
Substance = PhoQ, residues 284 288 289 292 302 303 QWQEDG; target = PhoP, residues 12 14 15 18 19 LWHVM (Escherichia coli, UniProt P23836); assay = Sort-seq, item: YFP reporter; test system = E. coli; conditions = PhoQ-PhoP variant library, together with: 10 µM Mg2+; scale = reference: high Mg2+ state, higher = stronger signaling; endpoint = fold induction; result = 6.57
